Published values gathered from unrelated publications.
Parts stem from different laboratories: compare values within a part only.

Sample 1
Target: Histone acetyltransferase KAT6A, winged helix 2, GST fusion (KAT6A, Homo sapiens, UniProt Q92794, residues 85-181)
Method: protein binding microarray
Form: double-stranded DNA, one strand shown
Sample: in vitro
Concentration: not given
Notes: 8-mer, flanks averaged, mean of 2 arrays, mostly near background
Reference: not given
Reading: higher = stronger binding
Measurement: E-score
Construct (chain): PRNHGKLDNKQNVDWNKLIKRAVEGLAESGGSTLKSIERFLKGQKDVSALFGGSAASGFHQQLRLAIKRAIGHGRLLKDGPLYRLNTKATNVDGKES
ATGTTATA: -0.0437
ACGCTGAA: -0.112
CCTCAACC: 0.0385
AAACACTA: 0.0184
GAGCCACC: 0.0417
ATCACCAC: -0.0599
AAAAGCTG: 0.0767
ACAAGATA: -0.0518
ATCGGTCC: 0.0643
GTCCACAA: -0.18
ACTCCGCG: 0.0509
ACTTCGAG: 0.0776
GAGTTATA: -0.0998
CGCACGTA: -0.198
CGATGCTA: -0.02
CAGCAGCG: 0.133
CCTAGCCC: 0.0781
CACATCAC: -0.0389
AGGCTAAT: 0.112
ATGTCTGC: 0.0127
ACACCTTA: 0.00475

Sample 2
Target: Sox-I, HMG box (Salpingoeca helianthica)
Method: Spec-seq
Form: double-stranded DNA, one strand shown
Sample: in vitro
Concentration: not given
Notes: whole probe, mean of replicates
Reference: not given
Reading: lower = stronger binding
Measurement: relative binding energy
All sequences stand within: GAGTCGTCTCGTCAGCAC … CCGTAGAGCACTCAGGTC
Residues (chain): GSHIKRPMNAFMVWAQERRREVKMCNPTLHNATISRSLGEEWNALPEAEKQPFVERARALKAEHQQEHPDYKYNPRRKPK
CATCCAC: 0.55 ln ratio
GAGGGTT: 1.07 ln ratio
GGGAGTT: 0.835 ln ratio
CATGACT: 0.595 ln ratio
GTACGTT: 0.909 ln ratio
TGGGGTT: 0.946 ln ratio
CCTTGTT: -1.52 ln ratio
CATCAAA: 0.524 ln ratio
AGTCGTT: 0.235 ln ratio
CATACCC: 0.67 ln ratio
CATCTTC: 0.719 ln ratio
CATCGGT: 0.981 ln ratio
CATGGTT: 0.754 ln ratio
CATACAA: -0.186 ln ratio
GATGGTT: 1.04 ln ratio
CATATGC: 0.946 ln ratio
GAGCGTT: 1.01 ln ratio

Sample 3
Target: PABPC1L2, full length, GST fusion (mouse, UniProt A0ABA7IW68)
Method: RNAcompete
Form: RNA
Sample: in vitro
Concentration: 20 nM
Notes: 7-mer, probes averaged, single round
Reference: mean of 7-mers
Reading: higher = stronger binding
Measurement: 7-mer Z-score
Target sequence (chain): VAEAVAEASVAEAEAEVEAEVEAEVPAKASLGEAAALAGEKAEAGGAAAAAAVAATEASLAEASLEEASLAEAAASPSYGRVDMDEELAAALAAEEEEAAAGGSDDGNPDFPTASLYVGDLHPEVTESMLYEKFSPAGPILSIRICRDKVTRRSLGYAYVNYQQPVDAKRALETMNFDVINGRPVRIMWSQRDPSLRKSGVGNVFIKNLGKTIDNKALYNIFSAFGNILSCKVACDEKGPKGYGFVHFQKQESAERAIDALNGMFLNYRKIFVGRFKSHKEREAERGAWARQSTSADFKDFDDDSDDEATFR
CACUAGG: 0.00798
AUUCCUU: -0.431
ACGUGGU: -0.128
CAUCCAG: -0.26
GCCAGAC: -0.0246
UCGAUAA: 0.128
CCAAACG: 0.00617
ACCCAUC: -0.267
UCUCGAU: -0.316
AUUUAAA: 0.74
AGAGGAA: 0.278
UCCCCUG: -0.385
CUACGCA: -0.119
UUACCCC: -0.443
UUUAGGA: 0.0714
UACUGUC: -0.327
UUUAAGC: 0.0968
AAACCAU: 0.575
ACUCUAC: -0.211
GCACGAU: -0.0283
AGUUAAG: -0.173
AGUACGG: 0.0587
AAAAUGC: 5.43

Sample 4
Target: Ras GTPase-activating protein-binding protein 1, full length (G3BP1, Homo sapiens, UniProt Q13283)
Sequence of UniProt Q13283 (whole entry, looked up): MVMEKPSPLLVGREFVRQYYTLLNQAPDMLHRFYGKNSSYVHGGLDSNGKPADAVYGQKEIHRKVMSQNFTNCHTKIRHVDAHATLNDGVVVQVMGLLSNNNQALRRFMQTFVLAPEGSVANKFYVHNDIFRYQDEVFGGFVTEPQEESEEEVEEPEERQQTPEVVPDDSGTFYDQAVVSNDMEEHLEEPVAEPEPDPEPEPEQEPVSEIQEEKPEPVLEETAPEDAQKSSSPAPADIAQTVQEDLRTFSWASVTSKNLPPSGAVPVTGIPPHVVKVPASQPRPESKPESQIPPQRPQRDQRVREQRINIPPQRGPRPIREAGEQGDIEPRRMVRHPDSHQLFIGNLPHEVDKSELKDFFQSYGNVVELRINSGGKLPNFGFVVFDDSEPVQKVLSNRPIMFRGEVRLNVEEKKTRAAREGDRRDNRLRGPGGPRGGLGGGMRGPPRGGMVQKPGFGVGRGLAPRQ
Method: RNA Bind-n-Seq
Form: RNA
Sample: in vitro
Concentration: 200 nM
Notes: whole 134-nt RNA, ends assumed
Together with: 150 mM LiCl
Reference: input library
Reading: higher = stronger binding
Measurement: log2 enrichment
All molecules: 7-deaza-guanosine replaces G
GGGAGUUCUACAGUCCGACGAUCUGGGAGGUGGAUUUUGUUUAUUUUUUUAGCUCAUUUCCAGGGGUGGGAAUUUUUUUUUAAUAUGUGUCAUCAAUAAAGUUGUUUUUGAAAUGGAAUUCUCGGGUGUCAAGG: 0.101
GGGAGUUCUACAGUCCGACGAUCGUCCUGUGCUACACAUCGUAUGUACCGAAUCGGAAAAAAAGGUUUUUUUGGUUUUUGGAAAGUAUUAUGUUACGCCGUUCGGAUCUGCACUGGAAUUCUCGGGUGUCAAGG: -2.78
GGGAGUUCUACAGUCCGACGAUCCACAGACAACACGCACCCACACAGAAACAGAGGGAAGGGGUUGGGAUGGGGACAGGGUGCACAGCAGGGCGGGGUAGGACCCCAGCCCCUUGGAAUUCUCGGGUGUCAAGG: 0.522
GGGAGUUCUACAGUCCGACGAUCUCCUGUGCUACACAUCGUAUGUACCGAAUCGGGGAAAAAAGGAAAAAAGGGAAAAAAGGAAAGUAUUAUGUUACGCCGUUCGGAUCUGCAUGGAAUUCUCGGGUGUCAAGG: 0.137
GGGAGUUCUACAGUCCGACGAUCUGGACGAUGAAGAGGAAACAAUUGAAGAGGAGGAAGCAAAUGAAGGCGUUGUGGACCACCAAACAGAACUUUCUAAUUUAGCCAAGGAAGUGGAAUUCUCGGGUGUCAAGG: -0.501
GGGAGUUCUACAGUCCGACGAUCUAACUUUAGAGGAGGAUCUGAUAGAUAUGGCAGUGGACGUGGAUUUGGGGAUGGCUAUAAUGGGUAUGGAGGAGGACCUGGAGGUGGCAAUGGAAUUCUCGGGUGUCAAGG: 0.0347
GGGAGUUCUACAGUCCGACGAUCUGGCCCUGGUGGCAUGCGGGGAGGAAGAGGUGGCCUCAUGGAUCGUGGUGGUCCCGGUGGAAUGUUCAGAGUUGGCCGUGGUGGAGACAGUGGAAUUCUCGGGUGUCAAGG: -0.0403
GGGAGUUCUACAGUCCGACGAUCUGCUGCUUUCUGCCUUGGUGGCAGGCAGAGAACUGUCUCGUACUAGAAUUCAAGGAGGAAAGAAGAAGAAAUAAAAGAAGCUGCUCCAUUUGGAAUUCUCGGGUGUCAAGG: -0.111
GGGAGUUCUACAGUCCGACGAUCUCACCUGUUUACAGUGAAUCAGACGUCCCAAUAGAUGUGGAGACGGUCACAUCAACGCCUAUGCCACUCUAUGACAAUCAGAAGGCACGCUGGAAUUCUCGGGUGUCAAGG: -1.5
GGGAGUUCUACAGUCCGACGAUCUGGGAGGUGGAUUUUGUUUAUUUUUUUAGCUCAUUUGCAGGGGUGGGAAUUUUUUUUUAAUAUGUGUCAUGAAUAAAGUUGUUUUUGAAAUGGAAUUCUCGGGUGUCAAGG: 0.687
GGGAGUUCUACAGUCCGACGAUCUCAAGUCCUGUGCUACACAUCGUAUGUACCGAAUCGGCCCGGGGCCCGGGCCCGGAAAGUAUUAUGUUACGCCGUUCGGAUCUGCACUUCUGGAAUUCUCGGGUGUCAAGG: -0.892

Sample 5
Target: TATA-box-binding protein 1 (TBP1, Arabidopsis thaliana, UniProt P28147, residues 1-200, full length assumed)
Method: protein-binding microarray
Form: double-stranded DNA, one strand shown
Sample: in vitro
Concentration: not given
Notes: k-mer, scored over probes, only values ≥0.25
Reading: higher = stronger binding
Measurement: E-score
Target sequence (chain): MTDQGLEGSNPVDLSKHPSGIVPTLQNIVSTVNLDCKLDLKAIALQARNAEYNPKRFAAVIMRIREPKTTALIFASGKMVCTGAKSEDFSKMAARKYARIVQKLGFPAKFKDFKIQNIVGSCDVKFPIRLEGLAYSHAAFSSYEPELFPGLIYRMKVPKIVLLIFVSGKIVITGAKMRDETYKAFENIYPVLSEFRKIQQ
GCATATA: 0.423
TATACAA: 0.258
GGCTTTA: 0.281
CCATAAA: 0.315
ACTTAAA: 0.404
AAAAGAT: 0.295
GCTTAAA: 0.401
ATAAAAG: 0.418
ATTTATA: 0.479
ATAAATA: 0.477
ACATATA: 0.429
CGAAATA: 0.261
ATAGTTA: 0.275
CGTATAA: 0.381
ATAAGCC: 0.268
AAATAGA: 0.257
GGTATAA: 0.394
TATCAAA: 0.298
AAAAATG: 0.287
AAAATTT: 0.306
ATATAGG: 0.422
CTGTATA: 0.318
ATATAAC: 0.46

Sample 6
Target: RNA binding protein fox-1 homolog 2, RRM domain, GST-SBP tag (RBFOX2, Homo sapiens, UniProt O43251-10, residues 100-194)
Method: RNA Bind-n-Seq
Form: RNA
Sample: in vitro
Concentration: 365 nM
Notes: natural RNA segment, single round, ends assumed
Reference: no-protein control
Reading: higher = stronger binding
Measurement: RBNS enrichment (R)
Residues (chain): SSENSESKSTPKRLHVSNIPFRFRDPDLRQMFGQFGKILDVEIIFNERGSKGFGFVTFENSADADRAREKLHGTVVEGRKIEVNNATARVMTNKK
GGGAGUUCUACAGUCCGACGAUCUAGGGGGGGGCGUUCAAAGGAAGCUGUUUAGCCUGACCGCAAGUACUGAAGUCUCUGCUUUCUGUCAGAAUCAACCACCGACCUUGUGCUGCAUUGGAGAUCACAUCCUUUGGAAUUCUCGGGUGCCAA: 0.66
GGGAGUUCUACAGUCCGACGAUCAACUUGUUCAAAAGAACAUCAACGUGCAAUGUUUUAAGGUCUAUCUUAAGAAGCCCUGGCCAAAUUUUGAUCCUAACCUUGAAGUAUGCCUUGAACUUAUUAACAUGGCCUGGAAUUCUCGGGUGCCAA: 0.519
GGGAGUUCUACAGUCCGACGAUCCAGCUACUUGGAAUUGGAAAUCGCCUGAACCCAGGAGGCGGAGGUUGCAGGGAGGGAGACUGCACCACUGCACUUCAGCCUGGGUGACAGAGGGAGACUCUGUCUUAAAAUGGAAUUCUCGGGUGCCAA: 0.647
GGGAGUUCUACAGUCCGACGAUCGGGGUAUCCCACUGCUAUACUGUUCUACUGCUUCCCUCAGUAUCUGAAUGUCUCAAUUUAAAACUUGAAGCUCUUUAGACCAAUAGACUGGUGAGAGGAGAAAGGAGCUUUGGAAUUCUCGGGUGCCAA: 0.336
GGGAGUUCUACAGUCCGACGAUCAAUGAAUCUUUGAAAUUUUUUAUUGUUGAAAAAGUGUUAAGUAACAUAAAUCUAAUCAGAUAUCUUAUGUAGUCCAUCUCUGCUGGCUUUAGUAACUGCUCCUAAACUUUUGGAAUUCUCGGGUGCCAA: 0.679
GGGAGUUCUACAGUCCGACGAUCGUUGCAAAGCCACAGAACAUUAUUGAACAUGUGAUGGGGCAGUGACAAACCUCUGCUGCUUCCCUCUUGGAGGAUACAGUAAUACCAGAGUGUGGAGAUCAGUAACCAUAUGGAAUUCUCGGGUGCCAA: 0.23
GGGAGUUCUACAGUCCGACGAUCGUUUUAAGAUUCUGUAAUAUAGUUCCACUGGGAAUUUUCCAUGCAACUUCGGAAGAUGCAGUUGUACGUGGCUAUUCCAUUCCUAAAGGCACAACAGUCAUUACAAAUCUUGGAAUUCUCGGGUGCCAA: 0.472
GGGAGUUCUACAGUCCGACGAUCACUAGCAGGUUCUUUUUAAAAGAACAUUUGGUUUUUUUUAAACAUGUGAUUUUUAACACAUAUAUUUCUUCCAUAUUCAGAUUGGCAUUCAUAUAUGUAUCCAUUCUGUAUGGAAUUCUCGGGUGCCAA: 1.12
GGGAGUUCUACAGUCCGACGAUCCUGGCUGGGUUUAUUUAAGAGUGGGAGAGCAUCCAUUGUCCAAACUGAGAGCAGCAACAGCCCUCUCUUCCUGCCCCCACCUAGGAGUGCCAAUACACUUAAGCUUUGUCUGGAAUUCUCGGGUGCCAA: 0.582
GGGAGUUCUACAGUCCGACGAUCUUAAUUCUACUUAACAUUUACUUCUUAAGCUGACAACUAGAUUCAGAAAUACAAGAAAAAUAGACUAUGUCAGGUCCUCAAGUUAUGAGUUAGGACCAACGACUAUUAACUGGAAUUCUCGGGUGCCAA: 0.516
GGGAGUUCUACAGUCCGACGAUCAGGGAGAGGACACCAGCACCUGGGACCUCCAGAGAAGCCGCACUGAGCGGACUUGUCGACAGAGGGUGAAAAAUUACUCCCACGCAGUCAGUAACCAUUUCUCUUAUUUUUGGAAUUCUCGGGUGCCAA: 0.423
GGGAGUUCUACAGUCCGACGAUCAACAAAAGGCUUUUGUUCAUACCAAAGGCUUUUGUGUGUGGAUGGGGGAGAGCCCCCCAGCUUCCUGCCACAGAGCACAGGCCUGUAUGUAGCUCAUAGUCCCCACAAUGUGGAAUUCUCGGGUGCCAA: 0.365

Repeated from above (sample 3):
AAAAUGC: 5.43
ACUCUAC: -0.211
UUUAAGC: 0.0968
UCUCGAU: -0.316
ACGUGGU: -0.128
CACUAGG: 0.00798
CAUCCAG: -0.26
CUACGCA: -0.119
